Measurements pooled from the literature.
± gives the spread as reported.

For `Cc1cccc(-c2cccc(C)n2)n1.Cc1cccc(-c2cccc(C)n2)n1.F[P-](F)(F)(F)(F)F.F[P-](F)(F)(F)(F)F.[Ru+2].c1ccc2c(-c3nc4c5cccnc5c5ncccc5c4[nH]3)cccc2c1`, “singlet oxygen quantum yield” read 0 (aerated acetonitrile; 298 K; reference: Ru(bpy)3(PF6)2).
`N#[11C]c1ccc(-c2csc(NN=C3CCCC3)n2)cc1` has a radioactivity uptake of 2.93 ± 0.66 %ID/g (C57BL/6 mice, male, spleen; intravenous, 3 MBq, 1 min).
`CC[C@H](C)[C@H](NC(=O)[C@H](C)NC(=O)[C@H](CCCCN)NC(=O)[C@H](CCCCN)NC(=O)[C@@H](N)CCCNC(=N)N)C(=O)N[C@@H](CCCCN)C(=O)N[C@@H](CC(C)C)C(=O)N[C@H](C(=O)N[C@@H](CCCCN)C(=O)N[C@@H](CCCCN)C(=O)N[C@@H](CC(C)C)C(=O)N[C@H](C(=O)N[C@@H](CCCCN)C(=O)N[C@@H](CCCCN)C(=O)N[C@@H](CC(C)C)C(=O)N[C@@H](CCCCN)C(=O)N[C@@H](CCCCN)C(=O)N[C@@H](C)C(=O)N[C@@H](CC(C)C)C(=O)N[C@@H](CCCCN)C(=O)O)C(C)C)C(C)C` has a hemolysis of 1.24% (human red blood cells; 4 mg/L, 1 h).
Under “chronic toxic concentration”, `CC(C)C[C@H](NC(=O)[C@H](Cc1ccc(O)cc1)NC(=O)[C@H](C)NC(=O)[C@H](CC(N)=O)NC(=O)[C@H](CC(C)C)NC(=O)[C@H](C)NC(=O)[C@@H](NC(=O)[C@H](CCCCN)NC(=O)CNC(=O)[C@@H](NC(=O)[C@H](CC(N)=O)NC(=O)[C@H](CCCCN)NC(=O)CNC(=O)[C@@H](NC(=O)[C@H](Cc1c[nH]cn1)NC(=O)[C@H](C)NC(=O)[C@H](C)NC(=O)[C@H](CCCCN)NC(=O)[C@H](CCCCN)NC(=O)[C@H](Cc1ccccc1)NC(=O)[C@H](Cc1c[nH]c2ccccc12)NC(=O)[C@H](CCCCN)NC(=O)[C@H](CCCCN)NC(=O)[C@H](CS)NC(=O)CN)C(C)C)C(C)C)C(C)C)C(N)=O` is recorded as 5 µM (zebrafish embryos 28 hpf, E3 medium; 24 h).
With `CC1(C)C(=O)N(c2ccc(C#N)c(C(F)(F)F)c2)C(=S)N1c1ccc(C(N)=O)c(F)c1` the AUC(0-inf) was 274 ± 44.8 µg·h/mL (human, male, plasma; oral, 160 mg, single dose, fasting).
`O=C1NC2(CC2)COc2ncc(F)cc2[C@H]2COCCN2c2ccn3ncc1c3n2` — result for “alkaline phosphatase activity”: 83.8 ± 9.6 U/L (Sprague-Dawley rat, female, serum; oral, 5 mg/kg/day, 4 weeks daily, end of treatment).
`CC(C)C[C@@H](NC(=O)[C@@H](CCCNC(=N)N)NC(=O)[C@@H](Cc1c[nH]cn1)NC(=O)[C@@H](Cc1c[nH]c2ccccc12)NC(=O)[C@@H](Cc1c[nH]cn1)NC(=O)[C@@H](Cc1ccccc1)NC(=O)[C@H](NC(=O)[C@@H](Cc1ccc(O)cc1)NC(=O)CNC(=O)CNC(=O)CCOCCOCCOCCNC(=O)CN1CCN(CC(=O)O)CCN(CC(=O)O)CC1)[C@H](C)O)C(=O)N[C@H](CC(N)=O)C(=O)N1CCC[C@@H]1C(=O)O` [gallium-68 labelled] gave a tumour-to-tissue ratio of 0.61 ± 0.13 (male C57BL/6 mice; intravenous, 1.85 MBq, 60 min, with: GP12 blocking; reference: tumour over liver).
The tissue uptake of `C[C@H](O)[C@@H](NC(=O)[C@H]1CCCN1C(=O)[C@@H](CCCCN)NC(=O)[C@@H](CO)NC(=O)[C@@H](Cc1ccc(O)cc1)NC(=O)[C@@H](CC(N)=O)NC(=O)CCOCCOCCOCCNC(=O)CN1CCN(CC(=O)O)CCN(CC(=O)O)CCN(CC(=O)O)CC1)C(=O)N[C@H](CC(=O)O)C(=O)N[C@H](CCCNC(=N)N)C(=O)N[C@H](CCC(N)=O)C(=O)N[C@H](Cc1ccc(O)cc1)C(=O)N[C@H](Cc1c[nH]cn1)C(=O)N[C@H](Cc1ccccc1)C(N)=O` [copper-64 labelled] is reported as 28.6 ± 3.04 %ID/g (C57BL/6J mice, kidney; intravenous, 1.85 MBq, 0.3333 h, radiolabelled).
For `CC(C)NCCCn1c(Sc2cc3c(cc2I)OCO3)nc2c(N)ncnc21`, the tumour concentration was 1.8 µM (LC-MS/MS; mouse, MDA-MB-468 xenograft, tumour; 25 mg/kg single dose, 24 h).
For `CC(C)[C@@H]1NC(=O)CNC(=O)[C@H](CC(N)=O)NC(=O)[C@H](CCCNC(=N)N)NC(=O)[C@H](Cc2ccc(O)cc2)NC(=O)[C@H](C(C)C)NC(=O)[C@@H](NC(=O)[C@@H](NC(=O)[C@H](CC(N)=O)NC(=O)[C@H](Cc2c[nH]c3ccccc23)NC(=O)[C@H](C)NC(=O)[C@H](Cc2ccccc2)NC(=O)CNC(=O)[C@H](CCCCN)NC(=O)[C@H](Cc2ccccc2)NC(=O)[C@H](Cc2ccccc2)NC(=O)[C@H](CCCCN)NC(=O)OCC2c3ccccc3-c3ccccc32)C(C)C)CSSC[C@@H](C(=O)N[C@@H](Cc2c[nH]cn2)C(=O)N[C@@H](CCCNC(=N)N)C(=O)N[C@@H](CCCNC(=N)N)C(=O)N[C@@H](C)C(=O)N[C@@H](CC(N)=O)C(N)=O)NC(=O)[C@H](C(C)C)NC(=O)[C@H](CCCNC(=N)N)NC1=O`, the neutrophils was 18.5 ± 1.01% (ICR mice, blood; intraperitoneal, 5 mg/kg, day 5).
For `CN1Cc2cc(Cl)ccc2-n2c(nnc2C2CCN(c3cccc([18F])n3)CC2)C1`, the tissue uptake was 8.61 ± 1.76 %ID/g (C57BL/6 mouse male, pancreas; intravenous, 3.7 MBq, 5 min).
`CC[C@H](C)[C@H](NC(=O)[C@H](CCCCN)NC(=O)CNC(=O)[C@H](CC(C)C)NC(=O)[C@H](Cc1ccccc1)NC(=O)[C@H](CCCCN)NC(=O)[C@H](CO)NC(=O)[C@H](Cc1ccccc1)NC(=O)[C@H](Cc1c[nH]c2ccccc12)NC(=O)[C@H](CCC(N)=O)NC(=O)[C@@H](NC(=O)[C@H](Cc1ccccc1)NC(=O)CCCCCNC(=O)CN1CCN(CC(=O)O)CCN(CC(=O)O)CCN(CC(=O)O)CC1)C(C)C)C(=O)N[C@@H](CCC(=O)O)C(=O)N1CCC[C@H]1C(=O)N[C@@H](CC(=O)O)C(=O)N[C@H](C(=O)N[C@@H](CO)C(=O)N[C@@H](CCC(N)=O)C(=O)N[C@H](C(=O)N[C@@H](CCC(N)=O)C(=O)N[C@@H](CC(=O)O)C(=O)N1CCC[C@H]1C(=O)N[C@@H](CC(N)=O)C(=O)N[C@@H](CC(=O)O)C(=O)N[C@@H](CCC(N)=O)C(=O)N[C@@H](Cc1ccc(O)cc1)C(=O)N[C@@H](CCC(=O)O)C(=O)N1CCC[C@H]1C(=O)N[C@@H](Cc1ccccc1)C(=O)O)C(C)C)C(C)C` [copper-64 labelled] has a tissue uptake of 0.39 ± 0.1 %ID/g (BALB/c mice, male, CT26 tumour-bearing, muscle; 2 h, vehicle-treated).
Under “cis isomer at photostationary state”, `CC(C)c1ccccc1/N=N/c1ccc2[nH]cc(CCN(C)C)c2c1` is recorded as 83% (light irradiation; solution; with: light 385 nm).
For `COc1ccc(CNc2ccc3c(c2)S(=O)(=O)C=C3)cc1`, the CD8+ cells was 10.3% (flow cytometry; male C57BL/6 mice, spleen; i.p., 20 mg/kg, 8 days; reference: CD45+ cells).
For `CSCC[C@H](N)C(=O)N[C@@H](C)C(=O)N[C@@H](CCCNC(=N)N)C(=O)N[C@@H](CCCNC(=N)N)C(=O)N[C@@H](CC(=O)O)C(=O)N[C@@H](CCCCN)C(=O)N[C@H](C(=O)N[C@@H](CC(=O)O)C(=O)N[C@@H](Cc1ccccc1)C(=O)N[C@@H](C)C(=O)N[C@@H](CCCNC(=N)N)C(=O)N[C@@H](CCCNC(=N)N)C(=O)N[C@@H](CCCNC(=N)N)C(=O)N[C@@H](CCCNC(=N)N)C(=O)NCCCCCC(=O)NCCCCC(NC(=O)CCCCCNC(=O)[C@H](CCCNC(=N)N)NC(=O)[C@H](CCCNC(=N)N)NC(=O)[C@H](CCCNC(=N)N)NC(=O)[C@H](CCCNC(=N)N)NC(=O)[C@H](C)NC(=O)[C@H](Cc1ccccc1)NC(=O)[C@H](CC(=O)O)NC(=O)[C@@H](NC(=O)[C@H](CCCCN)NC(=O)[C@H](CC(=O)O)NC(=O)[C@H](CCCNC(=N)N)NC(=O)[C@H](CCCNC(=N)N)NC(=O)[C@H](C)NC(=O)[C@@H](N)CCSC)[C@@H](C)O)C(=O)NCCCCC(NC(=O)C(CCCCNC(=O)CCCCCNC(=O)[C@H](CCCNC(=N)N)NC(=O)[C@H](CCCNC(=N)N)NC(=O)[C@H](CCCNC(=N)N)NC(=O)[C@H](CCCNC(=N)N)NC(=O)[C@H](C)NC(=O)[C@H](Cc1ccccc1)NC(=O)[C@H](CC(=O)O)NC(=O)[C@@H](NC(=O)[C@H](CCCCN)NC(=O)[C@H](CC(=O)O)NC(=O)[C@H](CCCNC(=N)N)NC(=O)[C@H](CCCNC(=N)N)NC(=O)[C@H](C)NC(=O)[C@@H](N)CCSC)[C@@H](C)O)NC(=O)CCCCCNC(=O)[C@H](CCCNC(=N)N)NC(=O)[C@H](CCCNC(=N)N)NC(=O)[C@H](CCCNC(=N)N)NC(=O)[C@H](CCCNC(=N)N)NC(=O)[C@H](C)NC(=O)[C@H](Cc1ccccc1)NC(=O)[C@H](CC(=O)O)NC(=O)[C@@H](NC(=O)[C@H](CCCCN)NC(=O)[C@H](CC(=O)O)NC(=O)[C@H](CCCNC(=N)N)NC(=O)[C@H](CCCNC(=N)N)NC(=O)[C@H](C)NC(=O)[C@@H](N)CCSC)[C@@H](C)O)C(N)=O)[C@@H](C)O` (stereo partly drawn), “mean tissue distribution” read 1.35% (C57BL/6 mouse female, femur; dose not given, 3 h; reference: total).
With `CC(=O)CCC1C(=O)NC(C(C)C)C(=O)NC(Cc2cc(O)cc(F)c2)C(=O)N2CCCC(N2)C(=O)OC(C(C)=CC=CC(=O)N2CCCCO2)CC=CC=CC(O)C(C)C1O` (stereo not drawn) the AUC was 142 ng·h/mL (male Sprague-Dawley rat, plasma; oral, 5 mg/kg).
The health score of `N=C(N)NCCC[C@H](NC(=O)[C@H](CCCNC(=N)N)NC(=O)[C@H](CCCNC(=N)N)NC(=O)[C@H](CCC(N)=O)NC(=O)[C@H](CCCNC(=N)N)NC(=O)[C@H](CCCNC(=N)N)NC(=O)[C@H](CCCCN)NC(=O)[C@H](CCCCN)NC(=O)[C@H](CCCNC(=N)N)NC(=O)CNC(=O)[C@H](Cc1ccc(O)cc1)NC(=O)[C@H](Cc1ccccc1)NC(=O)[C@H](Cc1ccccc1)NC(=O)[C@H](Cc1ccccc1)NC(=O)OCC1c2ccccc2-c2ccccc21)C(=O)O` is reported as 5 (C57BL/6 mice; intraperitoneal, 20 mg/kg, 0.5 h; direction not given).
`CSCC[C@H](NC(=O)CNC(=O)[C@H](CCCCN)NC(=O)[C@H](CC(C)C)NC(=O)[C@@H]1CCCN1C(=O)[C@H](CO)NC(=O)[C@H](Cc1c[nH]cn1)NC(=O)[C@H](Cc1c[nH]c2ccccc12)NC(=O)[C@H](CCCNC(=N)N)NC(=O)[C@H](CC(C)C)NC(=O)[C@H](CCCNC(=N)N)NC(=O)[C@H](Cc1c[nH]c2ccccc12)NC(=O)[C@H](CS)NC(=O)CCCCCNC(=O)CN1CCN(CC(=O)O)CCN(CC(=O)O)CCN(CC(=O)O)CC1)C(=O)O` [copper-64 labelled] has a tissue uptake of 9.41 ± 1.4 %ID/g (PET imaging; C57BL/6J mice bearing B16-F10 tumours, liver; intravenous, 57.5 min).

Excerpt of the above:
For `CC(C)NCCCn1c(Sc2cc3c(cc2I)OCO3)nc2c(N)ncnc21`, the tumour concentration was 1.8 µM (LC-MS/MS; mouse, MDA-MB-468 xenograft, tumour; 25 mg/kg single dose, 24 h).
